Assay results gathered from unrelated publications.
Protocols differ between the studies behind these lines. Numbers after ± are the reported error.

CS(=O)(=O)Nc1ccc(C(=O)O[C@@H](Cc2c(Cl)c[n+]([O-])cc2Cl)c2ccc(OC(F)F)c(OCC3CC3)c2)cc1OCC1CC1 — tmax (human, plasma; inhaled, 100 µg single dose, single-dose dry powder inhaler): 1.74 h
CCOc1ccc(Cc2cc([C@@H]3S[C@H](CO)[C@@H](O)[C@H](O)[C@H]3O)c(OC)cc2C)cc1 — elimination rate constant (human, plasma; oral, 10 mg/day, day 1, multiple dose before breakfast): 2.12e-05 ± 1.88e-06 s⁻¹
COc1cccc(N2CCN(C3=Nc4c(F)cccc4[C@H](CC(=O)O)N3c3cc(C(F)(F)F)ccc3OC)CC2)c1 — mean residence time (healthy women, plasma; intravenous, 240 mg once daily, day 14, 30-min infusion): 8.36 ± 3.87 h
CC(C)NC[C@@H](C(=O)N1CCN(c2ncnc3c2[C@H](C)C[C@H]3O)CC1)c1ccc(Cl)cc1 — AUC(0-inf) (human, moderate hepatic impairment (Child-Pugh), plasma; oral, 100 mg single dose, geometric mean): 808 ng·h/mL
O=C1Nc2ccccc2CCCc2ccccc21 — kinetic solubility (nephelometry; aqueous buffer; 30 min, pH 6.5): > 25 µg/mL
C/C=C/C=C/C=C\CC/C=C/C=C/C(=O)NCC(C)C — amount recovered, maximum (human ileostomy patients, ileal effluent; oral, 5 g TU-100, 4 h, no β-glucuronidase treatment): 139000 ng
CCCC[C@@H]1NC(=O)[C@@H](NC(=O)[C@H](CCC(=O)O)NC(=O)CNC(=O)CN2CCN(CC(=O)O)CCN(CC(=O)O)CCN(CC(=O)O)CC2)CCCCNC(=O)C[C@@H](C(N)=O)NC(=O)[C@H](C(C)C)NC(=O)[C@@H]2CCCN2C(=O)[C@H](CCCNC(=N)N)NC(=O)CNC(=O)[C@H](Cc2c[nH]c3ccccc23)NC(=O)[C@H](CCCNC(=N)N)NC(=O)[C@@H](Cc2ccccc2)NC(=O)[C@H](Cc2c[nH]cn2)NC(=O)[C@H](CCC(=O)O)NC1=O [indium-111 labelled] — tissue uptake (C57 mice, B16/F10 lung metastatic melanoma, stomach; intravenous, 0.037 MBq, 4 h): 0.05 ± 0.04 %ID/g
CC1=C2C[C@H]3[C@@H](CC[C@@H]4C[C@H](NS(C)(=O)=O)CC[C@@]43C)[C@@H]2CC[C@@]2(C1)O[C@@H]1C[C@H](C)CN[C@H]1[C@H]2C — Cmax (patients, plasma; oral, 30 mg single, day -7, cycle 1): 5.44 ng/mL
C=CC(=C)CC[C@]1(C)[C@H](C)C[C@H](OC)[C@@]23C(=C[C@H](OC(=O)C(C)C)C[C@@H]12)[C@@H](OC(C)=O)O[C@H]3OC(C)=O — haemolysis (haemolysis; 100 µM): 16.5%
CCCCN1CCCCC1C(=O)Nc1c(C)cccc1C (stereo not drawn) — EEG delta power increase (convulsant; TASK knockout mouse; intravenous, 3.75, 5 and 6.25 mg/kg, 15 s, ≤5 Hz, peak seizure; reference: baseline): ≥ 7 fold
C=CC(=C)CC[C@]1(C)[C@H](C)C[C@H](OC)[C@@]23C(=C[C@H](OC(=O)[C@@H](C)CC)C[C@@H]12)[C@@H](OC(C)=O)O[C@H]3OC(C)=O — haemolysis (haemolysis; 20 µM): 15.5%
Cc1nc(-c2ccc(OCC(C)C)c(C#N)c2)sc1C(=O)O — AUC(0-24) (adults with gout, plasma; oral, 80 mg, together with: verinurad 10 mg): 7700 ng·h/mL
FNA / CGLSGLGVA-NH2 ([18F]FNA-labelled, C-amide) — blood cell-bound radioactivity (peptide, healthy mouse, blood; iv, dose not given): 18.6 ± 0.54%
O=C(c1ccc(OCCN2CCCCC2)cc1)c1c(-c2ccc(O)cc2)sc2cc(O)ccc12 — AUC(0-4 h) (C57BL/6 mice male, plasma; oral, 20 mg/kg, geometric mean): 0.341 µM·h
CN[C@@H]1[C@H](O)[C@H](NC)[C@H]2O[C@]3(O)[C@H](O[C@@H]2[C@H]1O)O[C@H](C)C[C@H]3NC(=O)Cc1cc(Cl)c(OC)cn1 — parent remaining (glutathione conjugation; human liver S9; 100 µM, 2 h, pH 7.4, together with: glutathione 0.2 mM): 98.8%
CCCCCCCCCCCCCCCCCCOP(=O)([O-])OC1CC[N+](C)(C)CC1 — terminal half-life (rhesus monkey, male, plasma; oral, 7 mg/kg, single dose, mean of 3): 195 h
CCCCCCCCCCCCCNCC(=O)N(CC(=O)N(CCCCN)CC(=O)N(CCN)CC(=O)N(CC(N)=O)c1ccccc1)c1ccccc1 — acetonitrile at elution (preparative RP-HPLC C18; water to acetonitrile gradient; 0.05% TFA in eluent; higher = more hydrophobic): 67.7%
CCc1nc(C(N)=O)c(Nc2ccc(N3CCC(N4CCN(C)CC4)CC3)c(OC)c2)nc1NC1CCOCC1 — AUC(0-480 h) (human, normal hepatic function, plasma; oral, 10 mg, single dose, fasted, geometric LS mean): 523 ng·h/mL
COc1cc(Nc2ncc3c(n2)-c2ccc(Cl)cc2C(c2c(F)cccc2OC)=NC3)ccc1C(=O)O — trough concentration (children, UGT1A1 extensive metabolizers, no grade ≥2 toxicity, plasma; oral, 80 mg/m2, day 4): 810 ± 430 nM
CCCC[C@H](NC(C)=O)C(=O)N[C@H]1CCC(=O)NC[C@@H](C(=O)N[C@@H](Cc2c[nH]c3ccccc23)C(N)=O)NC(=O)[C@H](CCCNC(=N)N)NC(=O)[C@@H](Cc2ccccc2)NC(=O)[C@H](Cc2c[nH]cn2)NC1=O — AUC(0-t) (CD Sprague-Dawley rat, female, plasma; subcutaneous, 5.0 mg/kg/day, day 1): 4030 ng·h/mL
O=S(=O)(c1ccc(F)cc1)c1cc(F)c(O)c2ncccc12 — free concentration (rat Sprague-Dawley male, plasma; oral, 10 mg/kg, 4 h): 48 nM
C1CCc2c(c(N3CCOCC3)nc3sc4c(N5CCNCC5)nnnc4c23)C1 — plasma clearance (Swiss albino mice, male; intravenous, 3 mg/kg): 325 mL/min/kg
Cc1c(C(=O)NN2CCCCC2)nn(-c2ccc(Cl)cc2Cl)c1-c1ccc(Cl)cc1 — plasma concentration (LC-MS/MS; cynomolgus monkey 5, plasma; intravenous infusion, 0.1 mg/kg, 90 min, total concentration mid-point of PET): 92 nM
CCC[N+]1(CC(=O)OC2CCCCCCCCCCC2)CCCCC1.[I-] — aqueous solubility (phosphate buffer with 2% DMSO; 90 min, pH 7.4, theoretical maximum 200 µM): 194 µM
CCCOc1ccc([C@H]2CNC(=O)N2c2ccc3[nH]cnc3c2)cc1 — AUC(0-12h) (human, elderly, fasted, plasma; oral, 800 mg twice daily, tablet, day 11, geometric mean): 24500 ng·h/mL
O=C(O)Cc1ccccc1Nc1c(Cl)cccc1Cl — t1/2 (rat, plasma; oral, 10 mg/kg, together with: sesamin 10 mg/kg): 11.8 ± 6.8 h
O=C(/C=C/c1ccc(O)c(O)c1/C=C/c1ccc(O)c(O)c1)O[C@H](Cc1ccc(O)c(O)c1)C(=O)O — MRT(0-inf) (UPLC-MS/MS; Wistar rat, microcirculation dysfunction model, plasma; oral, 100 mg/kg Salvia miltiorrhiza stem-leaf extract FT): 16.4 ± 18.9 h
C[C@]12CC[C@@H]3c4ccc(O)cc4CC[C@H]3[C@@H]1C[C@@H](O)[C@@H]2O — median serum concentration (GC-MS; breast cancer women on NSAI, serum; vaginal, 0.03 mg daily, 1 h, day 28): 0 ng/mL
CC(=O)Nc1ccc(O)cc1 — AUC(0-12 h) (healthy volunteers, both sexes, plasma; oral, dose not given, day 6, together with: favipiravir, extended): 35300 ng·h/mL
CC(C)NCC1CCc2cc(CO)c([N+](=O)[O-])cc2N1 (stereo not drawn) — unbound intrinsic clearance (mouse liver microsomes; 1 µM, pH 7.4): 241 µL/min/mg
S=C(NCCCc1c[nH]cn1)NCCCN(Cc1ccc(Cl)c(Cl)c1)c1ccc(Br)cn1 — plasma concentration (male C57BL/6 mice, plasma; intraperitoneal, 30 mg/kg, 0.25 h): 2420 ng/mL
O=C1N=C(N2CCOCC2)CN1c1ccc(Cl)cc1 — AUC(0-inf) (beagle dog, both sexes, plasma; oral, 30 mg/kg, tablets, fed, day 5): 54000 ng·h/mL
CCN1C(=O)CNc2ncc(-c3ccc(-c4nc[nH]n4)nc3C)nc21 — AUC(0-12h) (human, plasma; oral, 16 mg once daily, multiple doses): 758 ng·h/mL
O=C(/C=C/c1ccc(O)c2c1[C@H](C(=O)O)[C@@H](c1ccc(O)c(O)c1)O2)O[C@H](Cc1ccc(O)c(O)c1)C(=O)O — MRT(0-t) (UPLC-MS/MS; Wistar rat, microcirculation dysfunction model, plasma; oral, 100 mg/kg Salvia miltiorrhiza stem-leaf extract FT): 7.56 ± 2.84 h
CC[C@H](C)[C@H](NC(=O)[C@H](Cc1ccccc1)NC(=O)[C@H](CCC(=O)O)NC(=O)[C@H](CCCCNC(=O)COCCOCCNC(=O)COCCOCCNC(=O)CC[C@H](NC(=O)CCCCCCCCCCCCCCCCC(=O)O)C(=O)O)NC(=O)[C@H](C)NC(=O)[C@H](C)NC(=O)[C@H](CCC(N)=O)NC(=O)CNC(=O)[C@H](CCC(=O)O)NC(=O)[C@H](CC(C)C)NC(=O)[C@H](Cc1ccc(O)cc1)NC(=O)[C@H](CO)NC(=O)[C@H](CO)NC(=O)[C@@H](NC(=O)[C@H](CC(=O)O)NC(=O)[C@H](CO)NC(=O)[C@@H](NC(=O)[C@H](Cc1ccccc1)NC(=O)[C@@H](NC(=O)CNC(=O)[C@H](CCC(=O)O)NC(=O)C(C)(C)NC(=O)[C@@H](N)Cc1cnc[nH]1)[C@@H](C)O)[C@@H](C)O)C(C)C)C(=O)N[C@@H](C)C(=O)N[C@@H](Cc1c[nH]c2ccccc12)C(=O)N[C@@H](CC(C)C)C(=O)N[C@H](C(=O)N[C@@H](CCCNC(=N)N)C(=O)NCC(=O)N[C@@H](CCCNC(=N)N)C(=O)NCC(=O)O)C(C)C — symptomatic hypoglycemia incidence (healthy human subjects; dose not given): 10.8%
CN(C)CC(c1ccc(O)cc1)C1(O)CCCCC1 (stereo not drawn) — AUCtau (human, plasma; oral, 225 mg/day, day 15): 8360 ng·h/mL
Cc1c2c(n(-c3ccc(Cl)cc3Cl)c1-c1ccc(OS(=O)(=O)CCC(F)(F)F)cc1)CCN(N1CCCCC1)C2=O — plasma concentration (LC-MS/MS; cynomolgus monkey 4, plasma; intravenous infusion, 1.0 mg/kg, 90 min, total concentration mid-point of PET): 401 nM
Cn1c(-c2ccc(C(N)=O)cc2F)nnc1C(C)(C)Oc1c(F)cc(Cl)cc1F — Cmax range over subjects (young Japanese adults, plasma; oral, 10 mg single dose, day 1, high-dose multiple-dose study): 62 to 148 ng/mL
CC(C)[C@H](N)C(=O)N[C@@H](Cc1c[nH]cn1)C(=O)N1CCC[C@H]1C(=O)N[C@@H](CCCCN)C(=O)N[C@@H](CCC(N)=O)C(=O)N[C@@H](Cc1c[nH]cn1)C(=O)N[C@@H](CCCNC(=N)N)C(=O)NCC(=O)NCC(=O)N[C@@H](CO)C(=O)N[C@@H](Cc1ccc(O)cc1)C(=O)NCCCC[C@H](NC(=O)[C@H](Cc1ccc(O)cc1)NC(=O)[C@H](CO)NC(=O)CNC(=O)CNC(=O)[C@H](CCCNC(=N)N)NC(=O)[C@H](Cc1c[nH]cn1)NC(=O)[C@H](CCC(N)=O)NC(=O)[C@H](CCCCN)NC(=O)[C@@H]1CCCN1C(=O)[C@H](Cc1c[nH]cn1)NC(=O)[C@@H](N)C(C)C)C(=O)NCCCC[C@H](NC(=O)[C@H](CCCCNC(=O)[C@H](Cc1ccc(O)cc1)NC(=O)[C@H](CO)NC(=O)CNC(=O)CNC(=O)[C@H](CCCNC(=N)N)NC(=O)[C@H](Cc1c[nH]cn1)NC(=O)[C@H](CCC(N)=O)NC(=O)[C@H](CCCCN)NC(=O)[C@@H]1CCCN1C(=O)[C@H](Cc1c[nH]cn1)NC(=O)[C@@H](N)C(C)C)NC(=O)[C@H](Cc1ccc(O)cc1)NC(=O)[C@H](CO)NC(=O)CNC(=O)CNC(=O)[C@H](CCCNC(=N)N)NC(=O)[C@H](Cc1c[nH]cn1)NC(=O)[C@H](CCC(N)=O)NC(=O)[C@H](CCCCN)NC(=O)[C@@H]1CCCN1C(=O)[C@H](Cc1c[nH]cn1)NC(=O)[C@@H](N)C(C)C)C(=O)N[C@@H](CCCCNC(=O)CON=Cc1ccc(F)cc1)C(=O)O [fluorine-18 labelled] — blood half-life (wild-type mouse; intravenous, 150 µCi): 0.267 ± 0.01 h
CC(=O)c1c(C)c2cnc(Nc3ccc(N4CCNCC4)cn3)nc2n(C2CCCC2)c1=O — mean half-life (paediatric patients, plasma; oral): ~15.6 h
C[C@@H](c1ncncc1F)[C@](O)(Cn1cncn1)c1ccc(F)cc1F — trough concentration (patients, hematological disorders, CYP2C19 IM with PPI or PM without PPI, plasma; 200 mg, 12 h, steady state, median, combined score 4): 2960 ng/mL
CC#CCn1c(N2CCC[C@@H](N)C2)nc2c1c(=O)n(Cc1nc(C)c3ccccc3n1)c(=O)n2C — AUC (male ICR mouse, plasma; oral, 3 mg/kg, 24 h): 2430 ng·h/mL
CN(C)C(=O)c1cc2cnc(Nc3ccc(N4CCNCC4)cn3)nc2n1C1CCCC1 — amount excreted in urine (human, severe renal impairment; oral, 400 mg, 0 to 144 h, geometric mean): 11.4 mg
CN1CC[C@@H](NC(=O)Nc2ccc(C#N)cc2)C[C@@H]1c1nc2ccccc2[nH]1 — tolerability (human, normal and impaired hepatic function; oral, 100 mg single dose): not toxic
COc1cnc(NS(=O)(=O)c2ccc(N)cc2)nc1 — kinetic solubility (PBS; 2 h, pH 7.4, 25 °C): 361 µM
O=C1NC(=O)[C@@H](c2cn3c4c(cccc24)CCC3)[C@@H]1c1c[nH]c2ccccc12 — AUC(0-12h) (human, plasma; oral, 120 mg, steady state, range limit, together with: topotecan intravenous): 2700 to 50300 ng·h/mL
O=C1Nc2ccccc2C(=O)CCc2cc(F)ccc21 — kinetic solubility (nephelometry; aqueous buffer; 30 min, pH 6.5): 50 to 100 µg/mL
Cc1nc2cccc(OCC(C)(C)C(=O)NC(C)C)c2c(N)c1C(=O)O — Tmax (female Sprague-Dawley rat, plasma; oral gavage, 100 mg/kg, day 7): 0.25 h
COCCOC(=O)C1=C(C)NC(C)=C(C(=O)OC(C)C)C1c1cccc([N+](=O)[O-])c1 (stereo not drawn) — oral bioavailability (male Sprague-Dawley rat, plasma; oral, 12 mg/kg, together with: pravastatin 1 mg/kg): 31.1%
C=CC(=O)Nc1cc(Nc2nccc(-c3cn(C)c4ccccc34)n2)c(OC)cc1N(C)CCN(C)C — MRT(0-t) (Sprague-Dawley rat, male, plasma; oral, 10 mg/kg): 8.04 ± 1.1 h
CNC(=O)c1ccccc1Sc1ccc2c(/C=C/c3ccccn3)n[nH]c2c1 — oral bioavailability (human; oral, fed, Form IV): 45.7%
